{"data": "Measurements from different studies", "B1": "CCDC32 1-100 (Mus musculus, UniProt Q8BS39); chain MKMFESLDSSATKSGRDLWAEICSCLPSPAQEDVSDNAFSDSFMDSHPAGESHTAAADSAVQPAGKPWAPLHDSEVYLASLEKKLRRIKGLNEEVTSKDM", "B2": "rga8 1-420 K62A/K64A/K65A/K141A/K142A/K144A (Schizosaccharomyces pombe, UniProt Q09697); sequence looked up; chain MISSFSNGFWSKDYATGVKKLFDCLDNGVEENEQVKNLLKLYKEANEEFGEKLQEITKECLAGAAPENTEDGATSNKAFEGLRSEIANQGKQHIRIAKDLETLIIAPFSKMSIDHSQKLQTSQQVLTNQIKSYEKKYYTLAATASAYYNKCRNLEDYEEESKESNETTSEAITDLTTVSSPQQQSLLENDDDLIQLGFMEFRPEELKEVLAQVLQEIPLQDYRVPILGTYPNTCSGNIIVSWLQENLPVPTLVAAEAFGQDLIAQGFLRHMGVGGSFVNSTNFHYQWKDKAFQFAGLNSVDSLVENAKALPLVGEYLSDYISHRKLYSSETQSQRLKREVLDANKIYSESVVDLDKCRTLVEETIADHLQFLQKCETDRVLYYKDFFMDLSTIISNFLPSMKLLADQIVVYQEIIQPESD", "B3": "INF2 941-1249 (Homo sapiens, UniProt Q27J81-1); FITC label; chain KQQLAEEEARRPRGEDGKPVRKGPGKQEEVCVIDALLADIRKGFQLRKTARGRGDTDGGSKAASMDPPRATEPVATSNPAGDPVGSTRCPASEPGLDATTASESRGWDLVDAVTPGPQPTLEQLEEGGPRPLERRSSWYVDASDVLTTEDPQCPQPLEGAWPVTLGDAQALKPLKFSSNQPPAAGSSRQDAKDPTSLLGVLQAEADSTSEGLEDAVHSRGARPPAAGPGGDEDEDEEDTAPESALDTSLDKSFSEDAVTDSSGSGTLPRARGRASKGTGKRRKKRPSRSQEEVPPDSDDNKTKKLCVIQ", "B4": "tnsD 1-318 (Escherichia coli, UniProt P13991); sequence looked up; chain MRNFPVPYSNELIYSTIARAGVYQGIVSPKQLLDEVYGNRKVVATLGLPSHLGVIARHLHQTGRYAVQQLIYEHTLFPLYAPFVGKERRDEAIRLMEYQAQGAVHLMLGVAASRVKSDNRFRYCPDCVALQLNRYGEAFWQRDWYLPALPYCPKHGALVFFDRAVDDHRHQFWALGHTELLSDYPKDSLSQLTALAAYIAPLLDAPRAQELSPSLEQWTLFYQRLAQDLGLTKSKHIRHDLVAERVRQTFSDEALEKLDLKLAENKDTCWLKSIFRKHRKAFSYLQHSIVWQALLPKLTVIEALQQASALTEHSITTR", "B5": "PSMD10 1-226 (Homo sapiens, UniProt O75832); chain MEGCVSNLMVCNLAYSGKLEELKESILADKSLATRTDQDSRTALHWACSAGHTEIVEFLLQLGVPVNDKDDAGWSPLHIAASAGRDEIVKALLGKGAQVNAVNQNGCTPLHYAASKNRHEIAVMLLEGGANPDAKDHYEATAMHRAAAKGNLKMIHILLYYKASTNIQDTEGNTPLHLACDEERVEEAKLLVSQGASIYIENKEEKTPLQVAKGGLGLILKRMVEG", "B6": "UBX5 (Saccharomyces cerevisiae, UniProt Q06682); sequence looked up; chain MSEGKVDEFMAITGADDAAIATQFIEMADGNLNTAISLFFENGGAALLSSNNTPTPSNSTPMAPTSVDSDADAQLAERLQREAYQQQQPDQDYVRPPDEARHEVLTETSGFPISYGGIGGRFEPLHRVNDMFDEGRPESIFNQRLDDTNTNTYINDNSSDSLDSEEENDDDEYEYVEEPVIELDEDGNIKEYTKLVRKPKTISKEQKLALLFRPPFSIMSKLDLDAAKQKARAKQKWIMINIQDSGIFQCQALNRDLWSSRPVKTIIKENFVFLQYQYESRNAQPYLQFYHLNNKDDLPHIAILDPITGERVKQWNRVVPIPEQFISEINEFLASFSLDPKVPNPTVNEPLPKVDPTTLTEEQQMELAIKESLNNNSSKSNQEEVPSTGEEQKRVQEPDPFSTIEARVHPEPPNKPGITTRIQIRTGDGSRLVRRFNALEDTVRTIYEVIKTEMDGFADSRFTLNDHQREDLIDKLNMTIADAGLKNSSLLLEKLDPEIE", "B7": "TFC6 1-672 (Saccharomyces cerevisiae, UniProt Q06339); chain MAVIPAKKRGRPRKSVVAEVPYDSLASPVSENSGSKRPRRNASKKAVANFAQLVHAGRDDVINTTQVNNVDDTDDDDFVLNDEGDGEESDNVEIEFENELESTKNEVADLNSSGSGASVRPSGRRNTVQKLRLKKNSTKNMKSSSPGSSLGQKGRPIRLLKDLSSARDKIERIYGLNKEKLLLLAKVKEGFETSVFDFPFKNIQPDSPYFVCLDPPCKKESAYNKVIGDKNRTVYHEINKTEFENMIKLRTKRLKLLIGEVDAEVSTGDKIEFPVLANGKRRGFIYNVGGLVTDIAWLNIEENTDIGKDIQYLAVAVSQYMDEPLNEHLEMFDKEKHSSCIQIFKMNTSTLHCVKVQTIVHSFGEVWDLKWHEGCHAPHLVGCLSFVSQEGTINFLEIIDNATDVHVFKMCEKPSLTLSLADSLITTFDFLSPTTVVCGFKNGFVAEFDLTDPEVPSFYDQVHDSYILSVSTAYSDFEDTVVSTVAVDGYFYIFNPKDIATTKTTVSRFRGSNLVPVVYCPQIYSYIYSDGASSLRAVPSRAAFAVHPLVSRETTITAIGVSRLHPMVLAGSADGSLIITNAARRLLHGIKNSSATQKSLRLWKWDYSIKDDKYRIDSSYEVYPLTVNDVSKAKIDAHGINITCTKWNETSAGGKCYAFSNSAGLLTLEYLS", "B8": "Notch1 221-526 (Mus musculus, UniProt Q01705); sequence looked up; chain PCSPSPCQNGGTCRPTGDTTHECACLPGFAGQNCEENVDDCPGNNCKNGGACVDGVNTYNCRCPPEWTGQYCTEDVDECQLMPNACQNGGTCHNTHGGYNCVCVNGWTGEDCSENIDDCASAACFQGATCHDRVASFYCECPHGRTGLLCHLNDACISNPCNEGSNCDTNPVNGKAICTCPSGYTGPACSQDVDECALGANPCEHAGKCLNTLGSFECQCLQGYTGPRCEIDVNECISNPCQNDATCLDQIGEFQCICMPGYEGVYCEINTDECASSPCLHNGHCMDKINEFQCQCPKGFNGHLCQ", "B9": "TOMM20 cytosolic domain, 62-127 (Homo sapiens, UniProt Q15388); chain CDAEAVQKFFLEEIQLGEELLAQGEYEKGVDHLTNAIAVCGQPQQLLQVLQQTLPPPVFQMLLTKLP", "B10": "PduK (Salmonella enterica, UniProt Q9XDN6); sequence looked up; chain MANKEHRVKQSLGLLEVCGLALAISCADIMAKSASITLLALEKTNGSGWMVIKITGDVASVQAAITTGAHFAEQWNGLVAHKVIARPGEGILLAETPSPSVIEPEPEASEIADVVSEAPAEEAPQESELVSCNLCLDPKCPRQKGEPRTLCIHSGKRGEA", "B11": "RAD18 267-402 (Homo sapiens, UniProt Q9NS91); sequence looked up; chain IQGNKQQLIKRHQEFVHMYNAQCDALHPKSAAEIVREIENIEKTRMRLEASKLNESVMVFTKDQTEKEIDEIHSKYRKKHKSEFQLLVDQARKGYKKIAGMSQKTVTITKEDESTEKLSSVCMGQEDNMTSVTNHF", "B12": "Pri1 (Saccharomyces cerevisiae, UniProt P10363); sequence looked up; chain MTNSVKTNGPSSSDMEYYYKSLYPFKHIFNWLNHSPKPSRDMINREFAMAFRSGAYKRYNSFNSVQDFKAQIEKANPDRFEIGAIYNKPPRERDTLLKSELKALEKELVFDIDMDDYDAFRTCCSGAQVCSKCWKFISLAMKITNTALREDFGYKDFIWVFSGRRGAHCWVSDKRARALTDVQRRNVLDYVNVIRDRNTDKRLALKRPYHPHLARSLEQLKPFFVSIMLEEQNPWEDDQHAIQTLLPALYDKQLIDSLKKYWLDNPRRSSKEKWNDIDQIATSLFKGPKQDSHIIKLRECKEDLVLMTLYPKLDVEVTKQTIHLLKAPFCIHPATGNVCVPIDESFAPEKAPKLIDLQTEMEKNNDVSLTALQPFINQFQAYVSSLLKNELGSVKREREDDDEPASLDF", "B13": "PARD6B 254-372 (Homo sapiens, UniProt Q9BYG5); chain NVVRNSRTSGSSGQSTDNSLLGYPQQIEPSFEPEDEDSEEDDIIIEDNGVPQQIPKAVPNTESLESLTQIELSFESGQNGFIPSNEVSLAAIASSSNTEFETHAPDQKLLEEDGTIITL", "B14": "USP7 207-560 (Homo sapiens, UniProt Q93009); sequence looked up; chain SKKHTGYVGLKNQGATCYMNSLLQTLFFTNQLRKAVYMMPTEGDDSSKSVPLALQRVFYELQHSDKPVGTKKLTKSFGWETLDSFMQHDVQELCRVLLDNVENKMKGTCVEGTIPKLFRGKMVSYIQCKEVDYRSDRREDYYDIQLSIKGKKNIFESFVDYVAVEQLDGDNKYDAGEHGLQEAEKGVKFLTLPPVLHLQLMRFMYDPQTDQNIKINDRFEFPEQLPLDEFLQKTDPKDPANYILHAVLVHSGDNHGGHYVVYLNPKGDGKWCKFDDDVVSRCTKEEAIEHNYGGHDDDLSVRHCTNAYMLVYIRESKLSEVLQAVTDHDIPQQLVERLQEEKRIEAQKRKERQE", "note": "Compare with care: the assays were run in different laboratories.", "chain of UniProt Q9C0W0 (whole entry, looked up)": "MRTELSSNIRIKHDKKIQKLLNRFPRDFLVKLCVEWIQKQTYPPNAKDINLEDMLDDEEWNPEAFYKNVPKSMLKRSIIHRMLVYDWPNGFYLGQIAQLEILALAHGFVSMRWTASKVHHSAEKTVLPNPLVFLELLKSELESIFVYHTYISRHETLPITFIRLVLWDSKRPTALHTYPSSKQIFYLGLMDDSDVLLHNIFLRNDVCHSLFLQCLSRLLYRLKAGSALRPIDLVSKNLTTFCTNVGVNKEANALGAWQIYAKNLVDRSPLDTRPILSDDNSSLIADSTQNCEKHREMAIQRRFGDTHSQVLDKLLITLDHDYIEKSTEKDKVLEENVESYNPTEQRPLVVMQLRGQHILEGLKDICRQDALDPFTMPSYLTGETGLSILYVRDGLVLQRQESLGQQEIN", "chain of UniProt Q08345 (whole entry, unmodified, looked up)": "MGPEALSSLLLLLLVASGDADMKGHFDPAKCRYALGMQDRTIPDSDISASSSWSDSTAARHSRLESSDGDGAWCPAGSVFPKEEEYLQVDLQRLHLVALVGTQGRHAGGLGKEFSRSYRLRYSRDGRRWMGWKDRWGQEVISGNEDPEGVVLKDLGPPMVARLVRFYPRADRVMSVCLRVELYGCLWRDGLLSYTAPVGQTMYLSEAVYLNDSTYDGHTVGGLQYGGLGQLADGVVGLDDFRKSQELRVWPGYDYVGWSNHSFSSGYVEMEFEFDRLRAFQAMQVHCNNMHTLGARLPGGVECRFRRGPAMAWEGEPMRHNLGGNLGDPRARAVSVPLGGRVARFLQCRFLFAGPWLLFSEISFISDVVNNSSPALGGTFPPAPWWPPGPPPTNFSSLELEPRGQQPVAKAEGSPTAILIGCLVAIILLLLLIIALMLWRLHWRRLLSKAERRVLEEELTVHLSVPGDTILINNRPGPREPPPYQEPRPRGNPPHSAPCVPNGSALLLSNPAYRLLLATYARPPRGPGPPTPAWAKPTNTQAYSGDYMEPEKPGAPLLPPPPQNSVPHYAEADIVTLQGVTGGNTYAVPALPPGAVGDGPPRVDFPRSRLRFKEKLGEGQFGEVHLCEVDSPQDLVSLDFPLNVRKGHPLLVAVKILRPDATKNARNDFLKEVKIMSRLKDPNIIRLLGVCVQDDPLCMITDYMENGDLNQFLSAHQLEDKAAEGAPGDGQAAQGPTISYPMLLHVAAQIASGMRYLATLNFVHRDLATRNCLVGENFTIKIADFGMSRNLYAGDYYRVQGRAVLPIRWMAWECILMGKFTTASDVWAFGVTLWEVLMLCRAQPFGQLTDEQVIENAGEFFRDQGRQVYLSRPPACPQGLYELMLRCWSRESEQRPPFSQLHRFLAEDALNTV", "chain of UniProt O60671 (whole entry, looked up)": "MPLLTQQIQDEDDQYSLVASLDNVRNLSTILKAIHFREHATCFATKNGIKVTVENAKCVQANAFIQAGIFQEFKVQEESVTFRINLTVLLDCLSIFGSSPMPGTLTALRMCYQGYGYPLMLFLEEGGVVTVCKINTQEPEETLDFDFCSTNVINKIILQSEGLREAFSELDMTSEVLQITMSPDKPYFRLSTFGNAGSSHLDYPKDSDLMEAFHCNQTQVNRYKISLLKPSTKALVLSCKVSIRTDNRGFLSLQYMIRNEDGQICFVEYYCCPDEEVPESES", "chain of UniProt Q9Z2G0 (whole entry, looked up)": "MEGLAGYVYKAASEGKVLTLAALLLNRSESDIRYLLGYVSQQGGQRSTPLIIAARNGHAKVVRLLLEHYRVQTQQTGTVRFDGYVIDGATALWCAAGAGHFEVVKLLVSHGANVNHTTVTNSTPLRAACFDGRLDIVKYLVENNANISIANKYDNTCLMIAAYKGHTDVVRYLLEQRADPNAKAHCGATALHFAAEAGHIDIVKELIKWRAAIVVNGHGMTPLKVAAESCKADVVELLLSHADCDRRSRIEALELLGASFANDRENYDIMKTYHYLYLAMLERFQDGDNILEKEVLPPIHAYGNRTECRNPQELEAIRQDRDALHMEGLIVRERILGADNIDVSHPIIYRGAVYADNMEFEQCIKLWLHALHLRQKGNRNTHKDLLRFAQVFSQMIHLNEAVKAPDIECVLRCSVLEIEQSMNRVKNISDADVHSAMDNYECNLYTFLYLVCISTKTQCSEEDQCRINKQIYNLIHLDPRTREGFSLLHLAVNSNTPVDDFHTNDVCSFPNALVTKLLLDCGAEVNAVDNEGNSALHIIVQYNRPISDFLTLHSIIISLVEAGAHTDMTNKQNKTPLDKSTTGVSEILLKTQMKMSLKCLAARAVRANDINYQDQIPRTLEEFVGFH", "chain of UniProt P20457 (whole entry, looked up)": "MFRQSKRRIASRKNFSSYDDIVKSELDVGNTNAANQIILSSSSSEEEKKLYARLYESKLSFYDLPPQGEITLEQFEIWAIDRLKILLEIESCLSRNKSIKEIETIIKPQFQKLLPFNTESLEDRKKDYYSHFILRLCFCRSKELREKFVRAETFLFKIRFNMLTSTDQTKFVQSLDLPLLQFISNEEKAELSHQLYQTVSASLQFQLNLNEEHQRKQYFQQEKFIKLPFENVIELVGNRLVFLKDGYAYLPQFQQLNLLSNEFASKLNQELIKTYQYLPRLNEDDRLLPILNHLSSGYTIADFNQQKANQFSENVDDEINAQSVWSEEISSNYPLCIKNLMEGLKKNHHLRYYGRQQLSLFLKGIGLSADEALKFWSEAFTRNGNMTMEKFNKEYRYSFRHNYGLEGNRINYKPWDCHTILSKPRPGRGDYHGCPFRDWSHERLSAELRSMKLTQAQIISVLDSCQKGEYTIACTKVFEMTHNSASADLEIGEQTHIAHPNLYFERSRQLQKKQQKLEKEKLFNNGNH", "chain of UniProt P18858 (whole entry, looked up)": "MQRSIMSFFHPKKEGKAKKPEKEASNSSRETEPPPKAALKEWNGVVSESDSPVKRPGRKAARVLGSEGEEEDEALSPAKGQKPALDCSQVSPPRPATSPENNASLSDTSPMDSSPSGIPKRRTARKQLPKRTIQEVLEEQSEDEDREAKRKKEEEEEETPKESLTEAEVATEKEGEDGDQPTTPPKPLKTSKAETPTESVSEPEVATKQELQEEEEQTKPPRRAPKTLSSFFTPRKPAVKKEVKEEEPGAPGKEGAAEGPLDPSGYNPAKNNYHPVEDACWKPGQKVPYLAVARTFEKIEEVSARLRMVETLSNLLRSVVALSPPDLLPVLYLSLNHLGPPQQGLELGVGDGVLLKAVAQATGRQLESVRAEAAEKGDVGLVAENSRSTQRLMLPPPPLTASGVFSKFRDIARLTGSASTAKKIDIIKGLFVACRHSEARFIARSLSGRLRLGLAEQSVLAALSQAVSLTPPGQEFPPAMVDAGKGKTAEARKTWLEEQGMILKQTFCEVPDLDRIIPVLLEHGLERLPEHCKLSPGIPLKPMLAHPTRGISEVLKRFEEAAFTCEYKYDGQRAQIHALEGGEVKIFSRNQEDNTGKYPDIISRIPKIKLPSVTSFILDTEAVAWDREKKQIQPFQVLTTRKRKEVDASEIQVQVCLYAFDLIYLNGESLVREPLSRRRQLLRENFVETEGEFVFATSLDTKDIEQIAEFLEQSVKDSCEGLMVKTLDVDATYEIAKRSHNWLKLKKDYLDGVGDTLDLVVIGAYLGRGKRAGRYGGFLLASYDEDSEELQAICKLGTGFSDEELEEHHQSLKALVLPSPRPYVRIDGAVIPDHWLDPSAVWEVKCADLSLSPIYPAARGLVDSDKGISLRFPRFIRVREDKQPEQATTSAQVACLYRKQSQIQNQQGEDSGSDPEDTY", "chain of UniProt P23804 (whole entry, looked up)": "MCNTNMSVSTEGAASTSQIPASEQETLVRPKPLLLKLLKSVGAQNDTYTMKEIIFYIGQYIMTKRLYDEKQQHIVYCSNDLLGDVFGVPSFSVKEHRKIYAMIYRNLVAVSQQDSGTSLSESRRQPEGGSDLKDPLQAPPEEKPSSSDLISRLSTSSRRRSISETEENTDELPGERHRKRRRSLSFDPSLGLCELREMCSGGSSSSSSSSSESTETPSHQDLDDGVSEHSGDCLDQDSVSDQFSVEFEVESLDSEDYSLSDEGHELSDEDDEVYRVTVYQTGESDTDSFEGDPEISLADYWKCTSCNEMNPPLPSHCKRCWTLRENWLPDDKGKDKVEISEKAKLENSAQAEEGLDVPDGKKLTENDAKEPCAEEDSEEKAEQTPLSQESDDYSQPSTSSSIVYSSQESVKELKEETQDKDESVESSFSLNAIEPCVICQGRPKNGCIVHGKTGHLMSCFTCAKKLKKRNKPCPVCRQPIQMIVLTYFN", "chain of UniProt P32270 (whole entry, looked up)": "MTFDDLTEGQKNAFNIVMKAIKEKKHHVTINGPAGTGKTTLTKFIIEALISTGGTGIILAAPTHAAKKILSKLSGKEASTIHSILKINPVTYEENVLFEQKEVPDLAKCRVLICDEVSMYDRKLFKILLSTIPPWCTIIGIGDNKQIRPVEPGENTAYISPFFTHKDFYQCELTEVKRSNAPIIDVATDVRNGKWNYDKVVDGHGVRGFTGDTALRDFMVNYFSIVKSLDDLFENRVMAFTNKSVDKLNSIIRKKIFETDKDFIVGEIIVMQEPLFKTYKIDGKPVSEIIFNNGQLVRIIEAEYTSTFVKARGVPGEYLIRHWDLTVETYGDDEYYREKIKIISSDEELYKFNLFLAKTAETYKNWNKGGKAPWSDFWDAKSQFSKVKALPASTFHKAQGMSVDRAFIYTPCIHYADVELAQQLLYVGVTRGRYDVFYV", "chain of UniProt Q9XDM8 (whole entry, looked up)": "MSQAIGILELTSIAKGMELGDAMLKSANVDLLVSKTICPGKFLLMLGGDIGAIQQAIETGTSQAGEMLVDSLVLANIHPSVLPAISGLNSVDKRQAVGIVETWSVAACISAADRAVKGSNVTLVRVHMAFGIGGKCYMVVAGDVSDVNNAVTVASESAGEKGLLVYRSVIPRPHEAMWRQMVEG"}
{"Molecule": "B1 (CCDC32 1-100)", "partner": "Ap2m1 122-435 (Mus musculus, UniProt P84091)", "method": "pull-down", "binding": "binds"}
{"Molecule": "B2", "partner": "rga8 1-420 (Schizosaccharomyces pombe, UniProt Q09697)", "method": "pull-down", "binding": "binds"}
{"Molecule": "B3 (INF2 941-1249)", "partner": "INF2 1-420 (Homo sapiens, UniProt Q27J81)", "method": "FP", "binding": "binds"}
{"Molecule": "VANFSTDVGLRWQS (cnp1 60-73 (Schizosaccharomyces pombe, UniProt Q9Y812))", "partner": "mis15 1-249 (Schizosaccharomyces pombe, UniProt Q9C0W0)", "method": "native gel", "molecule type": "peptide", "binding": "binds"}
{"Molecule": "B4 (tnsD 1-318)", "partner": "tnsC 1-503 A225V (Escherichia coli, UniProt P05846)", "method": "native gel, EMSA", "added": "ATPγS", "binding": "binds"}
{"Molecule": "B5 (PSMD10 1-226)", "partner": "Mdm2 (Mus musculus, UniProt P23804)", "method": "pull-down", "binding": "binds"}
{"Molecule": "B6 (UBX5)", "partner": "CDC48/UFD1/NPL4 (Saccharomyces cerevisiae)", "method": "pull-down", "binding": "binds"}
{"Molecule": "ATQISDLSKRKPKTEDFLTFLCLRGSPALP (JARID2 141-170 (Homo sapiens, UniProt Q92833); sequence looked up)", "partner": "SUZ12/RBBP4 SUZ12 76-545 (Homo sapiens)", "method": "pull-down", "binding": "binds"}
{"Molecule": "B7 (TFC6 1-672)", "partner": "TFC4 1-1025 (Saccharomyces cerevisiae, UniProt P33339)", "method": "cryo-EM", "binding": "binds"}
{"Molecule": "B8 (Notch1 221-526)", "partner": "DLL4 27-400 G28S/F107L/I143F/H194Y/L206P (Homo sapiens, UniProt Q9NR61)", "method": "SPR", "binding": "binds"}
{"Molecule": "gene 32 protein (Enterobacteria phage T4, UniProt P03695)", "partner": "Dda helicase (bacteriophage T4, UniProt P32270)", "method": "EMSA", "binding": "binds"}
{"Molecule": "KESALRKQDLLLLFDPLFR (TACC3 to 568 550-568 S558D/Y560L/K562L/L567F (Homo sapiens, UniProt Q9Y6A5); sequence looked up)", "partner": "CLTC 358-574 (Homo sapiens, UniProt Q00610)", "method": "peptide array", "molecule type": "peptide", "binding": "binds"}
{"Molecule": "B9", "partner": "Fem1b (Mus musculus, UniProt Q9Z2G0)", "method": "fluorescence polarisation", "binding": "binds"}
{"Molecule": "B10 (PduK)", "partner": "PduT (Salmonella enterica Typhimurium LT2, UniProt Q9XDM8)", "method": "cross-linking", "binding": "binds"}
{"Molecule": "RAD1 (Homo sapiens, UniProt O60671)", "partner": "LIG1 (Homo sapiens, UniProt P18858)", "method": "pull-down", "time": "1 hr", "temperature": "4 °C", "binding": "binds"}
{"Molecule": "DSNTRILIGSLVAIIFILLAIIVIILWRQFWQK (DDR2 395-427 C404S (Homo sapiens, UniProt Q16832); sequence looked up)", "partner": "DDR1 413-445 C422S/M437V (Homo sapiens, UniProt Q08345)", "method": "NMR titration", "binding": "binds"}
{"Molecule": "B11 (RAD18 267-402)", "partner": "MAGEA4 101-312 R299A (Homo sapiens, UniProt P43358)", "method": "TR-FRET", "binding": "binds"}
{"Molecule": "B12 (Pri1)", "partner": "PRI2 (Saccharomyces cerevisiae, UniProt P20457)", "method": "cryo-EM", "binding": "binds"}
{"Molecule": "KLLITIHDRKEFAKFEEERARAKWDTANNPLYKEATSTFTNITYRGT (ITGB3 742-788 (Homo sapiens, UniProt P05106); sequence looked up)", "partner": "VPS33B (Homo sapiens, UniProt Q9H267)", "method": "pull-down", "binding": "binds"}
{"Molecule": "B13 (PARD6B 254-372)", "partner": "LLGL2 13-978, dephosphorylated (Homo sapiens, UniProt Q6P1M3)", "method": "pull-down", "binding": "binds"}
{"Molecule": "B14 (USP7 207-560)", "partner": "ubiquitin, N-terminal TAMRA label (UniProt P0CG48)", "method": "fluorescence polarisation", "binding": "binds"}
{"note": "Repeated from above:"}
{"Molecule": "B9", "partner": "Fem1b (Mus musculus, UniProt Q9Z2G0)", "method": "fluorescence polarisation", "binding": "binds"}
{"Molecule": "B10 (PduK)", "partner": "PduT (Salmonella enterica Typhimurium LT2, UniProt Q9XDM8)", "method": "cross-linking", "binding": "binds"}
{"Molecule": "RAD1 (Homo sapiens, UniProt O60671)", "partner": "LIG1 (Homo sapiens, UniProt P18858)", "method": "pull-down", "time": "1 hr", "temperature": "4 °C", "binding": "binds"}
